# Published values from different studies.
# Lines come from different studies, so protocols differ.
# Technique: steady-state kinetics
# B1: enzyme A178R/D177A/P184R (Levilactobacillus brevis, UniProt Q03Q85); chain MKVTVVGCTHAGTFAIKQILAEHPDAEVTVYERNDVISFLSCGIALYLGGKVADPQGLFYSSPEELQKLGANVQMNHNVLAIDPDQKTVTVEDLTNHAQTTESYDKLVMTSGSWPIVPKIPGIDSDRVKLCKNWAHAQALIEDAKEAKRITVIGAGYIGAELAEAYSTTGHDVTLIARMARVMRKYFDADFTDVIEQDYRDHGVQLALGETVESFTDSATGLTIKTDKNSYETDLAILCIGFRPNTDLLKGKVDMAPNGAIITDDYMRSSNPDIFAAGDSAAVHYNPTHQNAYIPLATNAVRQGILVGKNLVKPTVKYMGTQSSSGLALYDRTIVSTGLTLAAAKQQGLNAEQVIVEDNYRPEFMPSTEPVLMSLVFDPDTHRILGGALMSKYDVSQSANTLSVCIQNENTIDDLAMVDMLFQPNFDRPFNYLNILAQAAQAKVAQSVNA
# B2: rebH G112S/K145M/M71V/N467T/N470S/S2P (Lentzea aerocolonigenes, UniProt Q8KHZ8); chain MPGKIDKILIVGGGTAGWMAASYLGKALQGTADITLLQAPDIPTLGVGEATIPNLQTAFFDFLGIPEDEWVRECNASYKVAIKFINWRTAGEGTSEARELDGGPDHFYHSFSLLKYHEQIPLSHYWFDRSYRGKTVEPFDYACYMEPVILDANRSPRRLDGSKVTNYAWHFDAHLVADFLRRFATEKLGVRHVEDRVEHVQRDANGNIESVRTATGRVFDADLFVDCSGFRGLLINKAMEEPFLDMSDHLLNDSAVATQVPHDDDANGVEPFTSAIAMKSGWTWKIPMLGRFGTGYVYSSRFATEDEAVREFCEMWHLDPETQPLNRIRFRVGRNRRAWVGNCVSIGTSSCFVEPLESTGIYFVYAALYQLVKHFPDKSLNPVLTARFNREIETMFDDTRDFIQAHFYFSPRTDTPFWRANKELRLADGMQEKIDMYRAGMAINAPASDDAQLYYGNFEEEFRNFWTNSSYYCVLAGLGLVPDAPSPRLAHMPQATESVDEVFGAVKDRQRNLLETLPSLHEFLRQQHGR
# B3: ERAP1 K528R (Homo sapiens, UniProt Q9NZ08); chain MVFLPLKWSLATMSFLLSSLLALLTVSTPSWCQSTEASPKRSDGTPFPWNKIRLPEYVIPVHYDLLIHANLTTLTFWGTTKVEITASQPTSTIILHSHHLQISRATLRKGAGERLSEEPLQVLEHPRQEQIALLAPEPLLVGLPYTVVIHYAGNLSETFHGFYKSTYRTKEGELRILASTQFEPTAARMAFPCFDEPAFKASFSIKIRREPRHLAISNMPLVKSVTVAEGLIEDHFDVTVKMSTYLVAFIISDFESVSKITKSGVKVSVYAVPDKINQADYALDAAVTLLEFYEDYFSIPYPLPKQDLAAIPDFQSGAMENWGLTTYRESALLFDAEKSSASSKLGITMTVAHELAHQWFGNLVTMEWWNDLWLNEGFAKFMEFVSVSVTHPELKVGDYFFGKCFDAMEVDALNSSHPVSTPVENPAQIREMFDDVSYDKGACILNMLREYLSADAFKSGIVQYLQKHSYKNTKNEDLWDSMASICPTDGVKGMDGFCSRSQHSSSSSHWHQEGVDVKTMMNTWTLQRGFPLITITVRGRNVHMKQEHYMKGSDGAPDTGYLWHVPLTFITSKSDMVHRFLLKTKTDVLILPEEVEWIKFNVGMNGYYIVHYEDDGWDSLTGLLKGTHTAVSSNDRASLINNAFQLVSIGKLSIEKALDLSLYLKHETEIMPVFQGLNELIPMYKLMEKRDMNEVETQFKAFLIRLLRDLIDKQTWTDEGSVSERMLRSQLLLLACVHNYQPCVQRAEGYFRKWKESNGNLSLPVDVTLAVFAVGAQSTEGWDFLYSKYQFSLSSTEKSQIEFALCRTQNKEKLQWLLDESFKGDKIKTQEFPQILTLIGRNPVGYPLAWQFLRKNWNKLVQKFELGSSSIAHMVMGTTNQFSTRTRLEEVKGFFSSLKENGSQLRCVQQTIETIEENIGWMDKNFDKIRVWLQSEKLEHDPEADATG
# B4: LYS1 C205S/K99M (Saccharomyces cerevisiae, UniProt P38998); chain MAAVTLHLRAETKPLEARAALTPTTVKKLIAKGFKIYVEDSPQSTFNINEYRQAGAIIVPAGSWKTAPRDRIIIGLKEMPETDTFPLVHEHIQFAHCYMDQAGWQNVLMRFIKGHGTLYDLEFLENDQGRRVAAFGFYAGFAGAALGVRDWAFKQTHSDDEDLPAVSPYPNEKALVKDVTKDYKEALATGARKPTVLIIGALGRSGSGAIDLLHKVGIPDANILKWDIKETSRGGPFDEIPQADIFINCIYLSKPIAPFTNMEKLNNPNRRLRTVVDVSADTTNPHNPIPIYTVATVFNKPTVLVPTTAGPKLSVISIDHLPSLLPREASEFFSHDLLPSLELLPQRKTAPVWVRAKKLFDRHCARVKRSSRL
# B5: TcA (Trypanosoma cruzi, UniProt Q4DRC4); chain MFIRLFAREEEGEKEGKICHMPREYEFAEKILFTEEEIRTRIKEVAKRIADDYKGKGLRPYVNPLVLISVLKGSFMFTADLCRALCDFNVPVRMEFICVSSYGEGLTSSGQVRMLLDTRHSIEGHHVLIVEDIVDTALTLNYLYHMYFTRRPASLKTVVLLDKREGRRVPFSADYVVANIPNAFVIGYGLDYDDTYRELRDIVVLRPEVYAEREAARQKKQRAIGSADTDRDAKREFHSKY
# B6: oxdC T165V (Bacillus subtilis, UniProt O34714); chain MKKQNDIPQPIRGDKGATVKIPRNIERDRQNPDMLVPPETDHGTVSNMKFSFSDTHNRLEKGGYAREVTVRELPISENLASVNMRLKPGAIRELHWHKEAEWAYMIYGSARVTIVDEKGRSFIDDVGEGDLWYFPSGLPHSIQALEEGAEFLLVFDDGSFSENSVFQLTDWLAHTPKEVIAANFGVTKEEISNLPGKEKYIFENQLPGSLKDDIVEGPNGEVPYPFTYRLLEQEPIESEGGKVYIADSTNFKVSKTIASALVTVEPGAMRELHWHPNTHEWQYYISGKARMTVFASDGHARTFNYQAGDVGYVPFAMGHYVENIGDEPLVFLEIFKDDHYADVSLNQWLAMLPETFVQAHLDLGKDFTDVLSKEKHPVVKKKCSK
# B7: enzyme (Halalkalibacterium halodurans, UniProt Q9KCN8); chain MLNVTQLQEATTFIQQQIETKPTIGLILGSGLGILADEIEQPVKVPYSDIPHFPVSTVQGHAGQLVIGMLEGKQVIAMQGRFHFYEGYSLEVVTFPVRVMKALGVEQIIVTNAAGGVNESFEAGDLMIIRDHINNMAQNPLIGPNDEAFGVRFPDMSNAYSERLRTLAKEKGNTLNLKLQEGVYVANTGPVYETPAEVRMIRKLGGDAVGMSTVPEVIVARHAGLEVLGISCISNMAAGILPQPLSHDEVIETTERVRQDFLNLVKAIVKDM
Molecule,substrate,pH,temperature,setting,with,Km [µM]
"enzyme (Pseudomonas putida, UniProt Q88P31)",NC(=O)c1ccc[n+]([C@@H]2O[C@H](COP(=O)(O)OP(=O)(O)OC[C@H]3O[C@@H](n4cnc5c(N)ncnc54)[C@H](OP(=O)(O)O)[C@@H]3O)[C@@H](O)[C@H]2O)c1,pH 8,30 °C,,,14
B1 (enzyme A178R/D177A/P184R),NC(=O)C1=CN([C@@H]2O[C@H](COP(=O)(O)OP(=O)(O)OC[C@H]3O[C@@H](n4cnc5c(N)ncnc54)[C@H](O)[C@@H]3O)[C@@H](O)[C@H]2O)C=CC1,pH 7.5,37 °C,,,1130
"moaA (Staphylococcus aureus, UniProt P69848)",C[S+](CC[C@H](N)C(=O)O)C[C@H]1O[C@@H](n2cnc3c(N)ncnc32)[C@H](O)[C@@H]1O,pH 7.6,25 °C,,"GTP, dithionite, MgCl2 1 mM",4.1
"enzyme (Pseudomonas aeruginosa, UniProt Q51366)",Nc1nc2c(ncn2[C@@H]2O[C@H](COP(=O)(O)OP(=O)(O)O[C@H]3O[C@H](CO)[C@@H](O)[C@H](O)[C@@H]3O)[C@@H](O)[C@H]2O)c(=O)[nH]1,,37 °C,,,14
pgmB H20A (Lactococcus lactis) (sequence not shown),O=P(O)(O)OC[C@H]1O[C@@H](OP(=O)(O)O)[C@H](O)[C@@H](O)[C@@H]1O,pH 7,25 °C,,,2.6
B2,c1ccc2c3c([nH]c2c1)CNCC3,,,,cofactor regeneration,8.6
B3 (ERAP1 K528R),CC(C)C[C@H](N)C(=O)N[C@@H](CO)C(=O)N[C@@H](CCCNC(=N)N)C(=O)N[C@@H](Cc1c[nH]cn1)C(=O)N[C@@H](Cc1c[nH]cn1)C(=O)N[C@@H](C)C(=O)N[C@@H](Cc1ccccc1)C(=O)N[C@@H](CO)C(=O)N[C@@H](Cc1ccccc1)C(=O)N[C@@H](CCCNC(=N)N)C(=O)O,,25 °C,,,2.3
B4 (LYS1 C205S/K99M),NC(=O)C1=CN([C@@H]2O[C@H](COP(=O)(O)OP(=O)(O)OC[C@H]3O[C@@H](n4cnc5c(N)ncnc54)[C@H](O)[C@@H]3O)[C@@H](O)[C@H]2O)C=CC1,pH 7.2,25 °C,,Lys and α-Kg,200
B5 (TcA),Nc1nc2nc[nH]c2c(=O)[nH]1,pH 8.3,37 °C,apparent,"PRPP 1 mM, MgCl2 12 mM",19
B6 (oxdC T165V),O=C(O)C(=O)O,pH 4.2,25 °C,,,30000
"RALBP1 (Homo sapiens, UniProt Q15311)",CNC(=O)c1cc(Oc2ccc(NC(=O)Nc3ccc(Cl)c(C(F)(F)F)c3)cc2)ccn1,pH 7.4,37 °C,,,10.4
B7 (enzyme),Nc1nc2c(ncn2[C@@H]2O[C@H](CO)[C@@H](O)[C@H]2O)c(=O)[nH]1,pH 8,,,,206

# A few entries again:
Molecule,substrate,pH,temperature,setting,with,Km [µM]
B5 (TcA),Nc1nc2nc[nH]c2c(=O)[nH]1,pH 8.3,37 °C,apparent,"PRPP 1 mM, MgCl2 12 mM",19
